# Experimental data collected from several papers.
# Numbered parts are unrelated; each lists some results of a single study. Values joined by “and” are separate records of one study, mostly repeats; a detail may differ.

# Set 1
# Cell line: mouse MPNST tumor cells
# Method: high-content immunofluorescence imaging
# Refers to: nuclear SOX9
# Concentration: 10 µM
# Time: 12 h
# Setting: mean of 2 replicates
# Reference: DMSO control
# Direction: higher = more nuclear SOX9
SMILES,nuclear SOX9 intensity
CC1=C(/C=C/C(C)=C/C=C/C(C)=C\C(=O)O)C(C)(C)CCC1,111 % of DMSO
O=c1[nH]c(=O)n([C@H]2C[C@H](O)[C@@H](CO)O2)cc1I,98.1 % of DMSO
O=S(=O)(NCCNC/C=C/c1ccc(Br)cc1)c1cccc2cnccc12,210 % of DMSO
C[N+](C)(C)CCOC(N)=O,93.8 % of DMSO and 104 % of DMSO
NS(=O)(=O)c1cc(C(=O)O)c(NCc2ccco2)cc1Cl,100 % of DMSO and 82.5 % of DMSO
Brc1c(NC2=NCCN2)ccc2nccnc12,90.9 % of DMSO and 99.3 % of DMSO

# Set 2
# Organism: Plasmodium berghei
# Action: inhibitor
# Cells: Huh-7
# Strain: GFP-expressing sporozoites, liver stage
# Concentration: 10 µM
# Time: 24 h
# Reference: untreated control
SMILES,infection rate [%]
CC1=C(/C=C/C(C)=C/C=C/C(C)=C/C=C/C=C(C)/C=C/C=C(C)/C=C/C2=C(C)CCCC2(C)C)C(C)(C)CCC1,121
CCOC(=O)C(C)(C)Oc1ccc(Cl)cc1,106
CCCCOC(=O)c1ccc(N)cc1,90.1
C/C=C(/C(=C/C)c1ccc(O)cc1)c1ccc(O)cc1,80.4
C[C@]12CC[C@@H]3c4ccc(O)cc4CC[C@H]3[C@@H]1CC[C@@H]2OC(=O)CCC1CCCC1,105
Nc1nc2c(ncn2COCCO)c(=O)[nH]1,35.1
CC(=O)OCC1=C(C(=O)O)N2C(=O)[C@@H](NC(=O)Cc3cccs3)[C@H]2SC1,93.6
CCc1cn([C@H]2C[C@H](O)[C@@H](CO)O2)c(=O)[nH]c1=O,115
Nc1ccn([C@@H]2O[C@H](CO)[C@@H](O)[C@@H]2O)c(=O)n1,73.2
O=c1oc2ccccc2c(O)c1Cc1c(O)c2ccccc2oc1=O,91.9

# Set 3
# Compound: CO[C@@H](C)c1c(Nc2ccc([C@@H](N(C)C(=O)C3CCS(=O)(=O)CC3)C(F)(F)F)cc2)cnc2cc(Cl)nn12
# Effect on: cell-free assay
# Method: competition with immobilised ligand
# Concentration: 1 µM
target,remaining binding
"Ribosomal protein S6 kinase alpha-2, N-terminal kinase domain (RPS6KA2, Homo sapiens, UniProt Q15349)",100%
"EGFR (Homo sapiens, UniProt P00533, L858R/T790M)",72%
"WNK4 (Homo sapiens, UniProt Q96J92)",99%
"VRK2 (Homo sapiens, UniProt Q86Y07)",100%
"NEK5 (Homo sapiens, UniProt Q6P3R8)",88%
"TEC (Homo sapiens, UniProt P42680)",82%
"CDKL5 (Homo sapiens, UniProt O76039)",89%
"RIOK1 (Homo sapiens, UniProt Q9BRS2)",91%
"MET (Homo sapiens, UniProt P08581, Y1235D)",85%
"ERBB4 (Homo sapiens, UniProt Q15303)",77%
"TAOK2 (Homo sapiens, UniProt Q9UL54)",94%
"ZAP70 (Homo sapiens, UniProt P43403)",100%
"SRPK1 (Homo sapiens, UniProt Q96SB4)",95%
"NEK9 (Homo sapiens, UniProt Q8TD19)",90%
"STK36 (Homo sapiens, UniProt Q9NRP7)",94%

# Set 4
# Target: Serine/threonine-protein kinase N1 (PKN1, Homo sapiens, UniProt Q16512)
# Effect on: enzyme activity
# Action: inhibitor
# Concentration: 0.5 µM
# Reference: control
SMILES,remaining activity
COc1cc(Nc2c(C#N)cnc3cc(OCCCN4CCN(C)CC4)c(OC)cc23)c(Cl)cc1Cl,74.2%
Cc1cc(Nc2nc(-c3ccccc3)nc3ccccc23)n[nH]1,89.9%
Nc1nc(Nc2ccc(S(N)(=O)=O)cc2)nn1C(=O)c1c(F)cccc1F,89.7%
Oc1ccc(Nc2nc(-c3ccc(Cl)cc3)cs2)cc1,99.5%
O=C1NC(=O)C(c2c[nH]c3ccccc23)=C1c1c[nH]c2ccccc12,84.6%
CCc1[nH]c(-c2ccc(OC)cc2)nc1-c1ccncc1,97%
CC[n+]1c(/C=C/N(C)c2ccccc2)n(-c2ccccc2)c2ccc(-c3nc4ccccc4s3)cc21,85.7%
O=S(=O)(NCCNC/C=C/c1ccc(Br)cc1)c1cccc2cnccc12,14.3%

# For quick reference, copied from above (set 3):
target,remaining binding
"NEK5 (Homo sapiens, UniProt Q6P3R8)",88%
"TEC (Homo sapiens, UniProt P42680)",82%
"MET (Homo sapiens, UniProt P08581, Y1235D)",85%
"CDKL5 (Homo sapiens, UniProt O76039)",89%
"NEK9 (Homo sapiens, UniProt Q8TD19)",90%
